Results of several laboratories.
Each numbered part is a random draw from the data of one study; scales do not carry over between parts.
Chain of UniProt O96017 (whole entry, looked up): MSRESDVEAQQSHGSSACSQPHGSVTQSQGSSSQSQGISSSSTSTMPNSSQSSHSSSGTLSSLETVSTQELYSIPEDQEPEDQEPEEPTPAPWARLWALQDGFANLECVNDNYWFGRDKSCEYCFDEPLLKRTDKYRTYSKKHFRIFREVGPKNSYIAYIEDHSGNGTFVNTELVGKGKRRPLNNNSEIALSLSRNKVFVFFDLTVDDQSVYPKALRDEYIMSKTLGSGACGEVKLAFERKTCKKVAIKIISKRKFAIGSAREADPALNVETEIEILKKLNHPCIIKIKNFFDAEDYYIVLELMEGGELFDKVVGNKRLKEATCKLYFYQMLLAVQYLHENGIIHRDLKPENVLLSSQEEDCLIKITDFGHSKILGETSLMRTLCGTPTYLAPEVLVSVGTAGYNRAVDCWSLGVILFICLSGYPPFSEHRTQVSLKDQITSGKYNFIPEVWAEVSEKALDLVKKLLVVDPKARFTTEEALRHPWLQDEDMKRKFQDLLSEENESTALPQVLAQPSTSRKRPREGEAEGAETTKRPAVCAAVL
Chain of UniProt P36897 (whole entry, looked up): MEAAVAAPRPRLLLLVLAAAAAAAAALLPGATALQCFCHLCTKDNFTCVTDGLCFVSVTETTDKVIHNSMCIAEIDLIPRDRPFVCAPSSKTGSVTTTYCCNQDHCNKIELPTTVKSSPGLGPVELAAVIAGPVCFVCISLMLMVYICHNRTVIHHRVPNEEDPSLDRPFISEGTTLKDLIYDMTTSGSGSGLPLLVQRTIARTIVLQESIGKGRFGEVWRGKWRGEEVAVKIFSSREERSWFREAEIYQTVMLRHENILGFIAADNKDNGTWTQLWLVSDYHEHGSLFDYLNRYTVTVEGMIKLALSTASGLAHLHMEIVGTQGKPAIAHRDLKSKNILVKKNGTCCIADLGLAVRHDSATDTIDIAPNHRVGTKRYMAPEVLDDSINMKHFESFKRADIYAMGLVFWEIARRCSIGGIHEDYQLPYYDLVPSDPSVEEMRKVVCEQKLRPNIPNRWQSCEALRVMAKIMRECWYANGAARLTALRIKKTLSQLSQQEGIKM
Chain of UniProt Q9UIK4 (whole entry, looked up): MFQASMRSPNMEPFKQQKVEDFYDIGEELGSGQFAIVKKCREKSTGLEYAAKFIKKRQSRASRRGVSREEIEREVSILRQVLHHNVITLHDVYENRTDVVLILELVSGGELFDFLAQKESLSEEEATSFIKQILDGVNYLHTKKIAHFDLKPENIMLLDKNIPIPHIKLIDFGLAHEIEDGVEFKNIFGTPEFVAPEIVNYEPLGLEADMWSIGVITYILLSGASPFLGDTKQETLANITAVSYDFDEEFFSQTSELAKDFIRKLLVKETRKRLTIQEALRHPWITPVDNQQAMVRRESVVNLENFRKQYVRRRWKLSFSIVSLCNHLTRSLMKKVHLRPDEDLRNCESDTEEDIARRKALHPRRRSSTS
Chain of UniProt P11802 (whole entry, looked up): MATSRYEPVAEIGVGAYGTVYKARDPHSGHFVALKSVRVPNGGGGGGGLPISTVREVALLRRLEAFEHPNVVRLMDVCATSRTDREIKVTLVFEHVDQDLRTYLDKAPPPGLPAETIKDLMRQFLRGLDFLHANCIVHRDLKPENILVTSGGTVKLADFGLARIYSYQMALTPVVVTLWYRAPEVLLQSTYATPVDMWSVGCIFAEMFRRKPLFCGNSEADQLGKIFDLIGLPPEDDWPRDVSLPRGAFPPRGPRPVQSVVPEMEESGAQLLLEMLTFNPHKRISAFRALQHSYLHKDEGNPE
Chain of UniProt P57078 (whole entry, looked up): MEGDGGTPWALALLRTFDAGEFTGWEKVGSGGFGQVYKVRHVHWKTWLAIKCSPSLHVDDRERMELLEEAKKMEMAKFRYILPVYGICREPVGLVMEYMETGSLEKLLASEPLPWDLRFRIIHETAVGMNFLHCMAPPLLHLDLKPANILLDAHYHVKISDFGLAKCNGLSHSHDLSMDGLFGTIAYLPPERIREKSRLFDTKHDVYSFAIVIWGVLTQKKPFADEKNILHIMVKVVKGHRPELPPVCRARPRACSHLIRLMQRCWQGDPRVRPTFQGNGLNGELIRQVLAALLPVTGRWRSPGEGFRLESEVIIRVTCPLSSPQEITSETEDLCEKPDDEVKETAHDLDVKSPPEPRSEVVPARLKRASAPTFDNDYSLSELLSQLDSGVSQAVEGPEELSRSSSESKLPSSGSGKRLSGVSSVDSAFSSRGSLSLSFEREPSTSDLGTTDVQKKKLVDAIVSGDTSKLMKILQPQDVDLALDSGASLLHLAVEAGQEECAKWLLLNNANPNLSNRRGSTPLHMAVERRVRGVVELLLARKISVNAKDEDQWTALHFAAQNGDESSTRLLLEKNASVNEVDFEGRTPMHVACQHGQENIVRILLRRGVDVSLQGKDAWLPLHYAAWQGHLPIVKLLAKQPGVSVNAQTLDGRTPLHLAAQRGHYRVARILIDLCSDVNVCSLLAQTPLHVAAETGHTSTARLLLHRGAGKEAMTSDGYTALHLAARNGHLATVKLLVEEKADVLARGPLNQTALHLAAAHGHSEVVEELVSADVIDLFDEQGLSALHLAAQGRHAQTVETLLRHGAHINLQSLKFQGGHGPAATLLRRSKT
Chain of UniProt P35626 (whole entry, looked up): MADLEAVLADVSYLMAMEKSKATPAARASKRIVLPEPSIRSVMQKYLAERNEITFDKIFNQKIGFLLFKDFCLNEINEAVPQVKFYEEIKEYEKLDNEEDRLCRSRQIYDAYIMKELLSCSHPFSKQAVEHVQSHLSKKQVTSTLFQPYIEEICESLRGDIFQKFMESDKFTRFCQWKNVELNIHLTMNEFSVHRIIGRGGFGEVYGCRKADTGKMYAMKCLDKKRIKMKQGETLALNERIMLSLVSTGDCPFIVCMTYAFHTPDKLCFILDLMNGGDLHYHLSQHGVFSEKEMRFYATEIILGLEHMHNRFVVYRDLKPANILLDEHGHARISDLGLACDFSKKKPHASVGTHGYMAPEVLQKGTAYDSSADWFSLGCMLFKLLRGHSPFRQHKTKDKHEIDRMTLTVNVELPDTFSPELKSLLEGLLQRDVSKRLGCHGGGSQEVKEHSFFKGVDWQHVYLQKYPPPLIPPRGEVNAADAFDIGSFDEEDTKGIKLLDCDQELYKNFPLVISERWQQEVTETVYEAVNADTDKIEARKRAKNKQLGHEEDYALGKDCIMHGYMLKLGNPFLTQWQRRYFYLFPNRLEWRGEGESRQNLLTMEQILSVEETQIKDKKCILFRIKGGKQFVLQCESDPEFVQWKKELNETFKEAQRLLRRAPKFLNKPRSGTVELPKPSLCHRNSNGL
Chain of UniProt Q7Z602 (whole entry, looked up): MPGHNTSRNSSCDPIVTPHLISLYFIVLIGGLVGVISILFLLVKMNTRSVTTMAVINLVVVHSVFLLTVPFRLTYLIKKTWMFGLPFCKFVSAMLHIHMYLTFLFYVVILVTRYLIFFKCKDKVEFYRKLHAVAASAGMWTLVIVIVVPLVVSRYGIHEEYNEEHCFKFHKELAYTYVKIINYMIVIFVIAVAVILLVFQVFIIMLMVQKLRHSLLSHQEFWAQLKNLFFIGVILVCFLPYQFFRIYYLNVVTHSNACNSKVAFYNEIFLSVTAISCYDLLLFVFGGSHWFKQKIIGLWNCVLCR
Chain of UniProt Q15831 (whole entry, looked up): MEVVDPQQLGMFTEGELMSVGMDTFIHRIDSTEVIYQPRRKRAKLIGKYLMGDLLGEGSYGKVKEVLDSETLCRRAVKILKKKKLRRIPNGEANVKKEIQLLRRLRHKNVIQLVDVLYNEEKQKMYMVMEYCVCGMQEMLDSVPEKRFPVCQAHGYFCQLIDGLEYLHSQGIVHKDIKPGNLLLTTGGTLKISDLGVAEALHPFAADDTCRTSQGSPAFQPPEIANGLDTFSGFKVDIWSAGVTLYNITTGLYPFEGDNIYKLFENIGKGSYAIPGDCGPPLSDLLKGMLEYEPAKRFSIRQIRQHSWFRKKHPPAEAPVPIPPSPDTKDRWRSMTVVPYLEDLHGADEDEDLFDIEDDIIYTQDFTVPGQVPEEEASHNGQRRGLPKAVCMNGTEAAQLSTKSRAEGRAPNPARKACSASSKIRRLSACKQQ
Chain of UniProt P07948 (whole entry, looked up): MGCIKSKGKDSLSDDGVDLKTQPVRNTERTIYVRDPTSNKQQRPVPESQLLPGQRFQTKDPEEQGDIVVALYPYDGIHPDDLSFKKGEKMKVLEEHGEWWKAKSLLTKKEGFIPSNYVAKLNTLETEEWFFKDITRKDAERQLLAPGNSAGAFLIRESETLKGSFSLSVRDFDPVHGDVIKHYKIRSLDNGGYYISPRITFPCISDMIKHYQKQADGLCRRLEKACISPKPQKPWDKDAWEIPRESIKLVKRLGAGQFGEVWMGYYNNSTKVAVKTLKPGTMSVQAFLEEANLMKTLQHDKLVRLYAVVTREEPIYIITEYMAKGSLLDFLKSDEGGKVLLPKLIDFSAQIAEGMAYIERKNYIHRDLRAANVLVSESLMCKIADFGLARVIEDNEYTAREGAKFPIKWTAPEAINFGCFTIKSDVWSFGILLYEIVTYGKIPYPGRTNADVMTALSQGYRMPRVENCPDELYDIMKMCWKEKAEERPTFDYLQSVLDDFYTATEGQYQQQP
Chain of UniProt Q99680 (whole entry, looked up): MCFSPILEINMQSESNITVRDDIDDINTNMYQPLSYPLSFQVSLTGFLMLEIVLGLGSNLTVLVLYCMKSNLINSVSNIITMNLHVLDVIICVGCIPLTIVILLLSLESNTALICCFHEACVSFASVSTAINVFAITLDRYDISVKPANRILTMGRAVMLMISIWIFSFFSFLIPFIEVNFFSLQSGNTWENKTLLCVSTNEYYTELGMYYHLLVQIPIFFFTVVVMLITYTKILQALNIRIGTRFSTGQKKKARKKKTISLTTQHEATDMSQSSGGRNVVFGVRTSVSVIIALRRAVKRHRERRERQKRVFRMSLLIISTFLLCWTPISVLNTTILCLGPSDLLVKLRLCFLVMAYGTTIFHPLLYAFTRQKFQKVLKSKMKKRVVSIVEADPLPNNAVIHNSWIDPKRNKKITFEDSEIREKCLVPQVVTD

Series 1 — SMILES: CCN(c1nc(N)c(C(=O)N=C(N)N)nc1Cl)C(C)C; observed: β-arrestin recruitment; mode: agonist; technique: PRESTO-Tango; tested at: 10 µM; relative to: untreated
| target | fold over basal |
| --- | --- |
| Probable G-protein coupled receptor 141 (GPR141, Homo sapiens, UniProt Q7Z602) | 1.18 |
| Lysophosphatidic acid receptor 2 (LPAR2, Homo sapiens, UniProt Q9HBW0) | 1.48 |
| 5-hydroxytryptamine receptor 2C (HTR2C, Homo sapiens, UniProt P28335) | 1.22 |
| Prostaglandin E2 receptor EP4 subtype (PTGER4, Homo sapiens, UniProt P35408) | 0.73 |
| C-C chemokine receptor type 10 (CCR10, Homo sapiens, UniProt P46092) | 0.86 |
| Sphingosine 1-phosphate receptor 5 (S1PR5, Homo sapiens, UniProt Q9H228) | 0.44 |
| G-protein coupled receptor 22 (GPR22, Homo sapiens, UniProt Q99680) | 1.1 |
| Prostaglandin E2 receptor EP1 subtype (PTGER1, Homo sapiens, UniProt P34995) | 0.91 |
| Adhesion G protein-coupled receptor A2 (ADGRA2, Homo sapiens, UniProt Q96PE1) | 1.02 |
| Atypical chemokine receptor 3 (ACKR3, Homo sapiens, UniProt P25106) | 7.95 |
| Melanin-concentrating hormone receptor 1 (MCHR1, Homo sapiens, UniProt Q99705) | 1.01 |
| G-protein coupled receptor 78 (GPR78, Homo sapiens, UniProt Q96P69) | 0.92 |
| Beta-1 adrenergic receptor (ADRB1, Homo sapiens, UniProt P08588) | 1.38 |
| Orexin receptor type 2 (HCRTR2, Homo sapiens, UniProt O43614) | 0.85 fold |

Series 2 — observed: enzyme activity; mode: inhibitor; tested at: 0.5 µM; relative to: control
SMILES: O=S(=O)(NCCNC/C=C/c1ccc(Br)cc1)c1cccc2cnccc12
| target | remaining activity |
| --- | --- |
| Calcium/calmodulin-dependent protein kinase kinase 2 (CAMKK2, Homo sapiens, UniProt Q96RR4) | 95.6% |
| Serine/threonine-protein kinase Chk2 (CHEK2, Homo sapiens, UniProt O96017) | 82.8% |
| cAMP-dependent protein kinase catalytic subunit alpha (PRKACA, Homo sapiens, UniProt P17612) | 10.5% |
| Cyclin-dependent kinase 4, with cyclin D1 (CDK4, Homo sapiens, UniProt P11802) | 93.9% |
| Death-associated protein kinase 1 (DAPK1, Homo sapiens, UniProt P53355) | 81.5% |
| Tyrosine-protein kinase Lyn, isoform B (LYN, Homo sapiens, UniProt P07948) | 101% |
| TGF-beta receptor type-1 (TGFBR1, Homo sapiens, UniProt P36897) | 97% |
| Mitogen-activated protein kinase kinase kinase 3 (MAP3K3, Homo sapiens, UniProt Q99759) | 85.4% |
| Inhibitor of nuclear factor kappa-B kinase subunit beta (IKBKB, Homo sapiens, UniProt O14920) | 89.5% |
| Cyclin-dependent kinase 5, with p25 (CDK5, Homo sapiens, UniProt Q00535) | 113% |
| Inhibitor of nuclear factor kappa-B kinase subunit epsilon (IKBKE, Homo sapiens, UniProt Q14164) | 92.3% |
| STE20/SPS1-related proline-alanine-rich protein kinase (STK39, Homo sapiens, UniProt Q9UEW8) | 103% |
| Serine/threonine-protein kinase OSR1 (OXSR1, Homo sapiens, UniProt O95747) | 95.9% |
| cGMP-dependent protein kinase 1, isoform beta (PRKG1, Homo sapiens, UniProt Q13976) | 41.1% |
| TGF-beta receptor type-2 (TGFBR2, Homo sapiens, UniProt P37173) | 92.1% |
| Serine/threonine-protein kinase STK11 (STK11, Homo sapiens, UniProt Q15831) | 102% |
| Serine/threonine-protein kinase 10 (STK10, Homo sapiens, UniProt O94804) | 89.2% |
| Calcium/calmodulin-dependent protein kinase type II subunit delta (CAMK2D, Homo sapiens, UniProt Q13557) | 97.1% |
| G protein-coupled receptor kinase 3 (GRK3, Homo sapiens, UniProt P35626) | 101% |
| Death-associated protein kinase 2 (DAPK2, Homo sapiens, UniProt Q9UIK4) | 72.1% |
| Mitogen-activated protein kinase 9 (MAPK9, Homo sapiens, UniProt P45984) | 93.4% |
| Protein kinase C beta type, isoform beta-I (PRKCB, Homo sapiens, UniProt P05771) | 88.3% |

Series 3 — observed: cell-free assay; technique: competition with immobilised ligand; tested at: 0.1 µM
SMILES: C[C@H](c1ccnc(Nc2nc3ccc(-c4cc(N(C)C)ncn4)cc3[nH]2)c1)N1CCN(C(=O)CC(F)(F)F)CC1
| target | remaining binding [%] |
| --- | --- |
| Serine/threonine-protein kinase Chk2 (CHEK2, Homo sapiens, UniProt O96017) | 84 |
| Ribosomal protein S6 kinase alpha-3, N-terminal kinase domain (RPS6KA3, Homo sapiens, UniProt P51812) | 100 |
| cGMP-dependent protein kinase 2 (PRKG2, Homo sapiens, UniProt Q13237) | 94 |
| MAP/microtubule affinity-regulating kinase 4 (MARK4, Homo sapiens, UniProt Q96L34) | 100 |
| Hormonally up-regulated neu tumor-associated kinase (HUNK, Homo sapiens, UniProt P57058) | 95 |
| MAP kinase-interacting serine/threonine-protein kinase 2 (MKNK2, Homo sapiens, UniProt Q9HBH9) | 86 |
| Wee1-like protein kinase 2 (WEE2, Homo sapiens, UniProt P0C1S8) | 98 |
| Vascular endothelial growth factor receptor 1 (FLT1, Homo sapiens, UniProt P17948) | 100 |
| Mitotic checkpoint serine/threonine-protein kinase BUB1 (BUB1, Homo sapiens, UniProt O43683) | 95 |
| Receptor-interacting serine/threonine-protein kinase 4 (RIPK4, Homo sapiens, UniProt P57078) | 100 |
| Dual specificity mitogen-activated protein kinase kinase 1 (MAP2K1, Homo sapiens, UniProt Q02750) | 99 |
| RAF proto-oncogene serine/threonine-protein kinase (RAF1, Homo sapiens, UniProt P04049) | 97 |
| Receptor-interacting serine/threonine-protein kinase 2 (RIPK2, Homo sapiens, UniProt O43353) | 71 |
| Vascular endothelial growth factor receptor 2 (KDR, Homo sapiens, UniProt P35968) | 100 |
| NT-3 growth factor receptor (NTRK3, Homo sapiens, UniProt Q16288) | 100 |
| Platelet-derived growth factor receptor beta (PDGFRB, Homo sapiens, UniProt P09619) | 82 |
| Cyclin-dependent kinase 11B (CDK11B, Homo sapiens, UniProt P21127) | 100 |
| Epidermal growth factor receptor (EGFR, Homo sapiens, UniProt P00533, del747-750/T751S) | 86 |
| Tyrosine-protein kinase Lck (LCK, Homo sapiens, UniProt P06239) | 100 |
| Receptor-type tyrosine-protein kinase FLT3 (FLT3, Homo sapiens, UniProt P36888, D835H) | 71 |
| Tyrosine-protein kinase ABL1, non-phosphorylated (ABL1, Homo sapiens, UniProt P00519) | 89 |
| TGF-beta receptor type-1 (TGFBR1, Homo sapiens, UniProt P36897) | 85 |
| Epidermal growth factor receptor (EGFR, Homo sapiens, UniProt P00533, L858R/T790M) | 100 |

Series 4 — host: mouse; matrix: microsomes or S9; tested at: 2 µM; time: 0.5 h
| Structure (SMILES) | remaining compound |
| --- | --- |
| Cc1nn(C)cc1-c1nn(-c2ccccc2)c(-c2cn(C)nc2C)c1C | 21.9% |
| CCc1cc2c(NCCO)nc(-c3ccccc3)nc2s1 | 2.22% |
| C[C@@H](NC(=O)c1ccc(F)cc1)[C@H](O)c1ccccc1 | 60.8% |
| O=C(O)c1ccc2c(Br)c(O)c(C(=O)O)cc2c1 | > 99% |
| Cc1cccc(C(O)(C(=O)NNc2ccc(Br)cn2)c2cccc(C)c2)c1 | 6.63% |
| O=C(NC1CCc2ccccc21)c1nnn(-c2ccccc2Cl)c1-c1ccncc1 (stereo not drawn) | 2.38% |
| CCOC(=O)Cn1cnc2c1c(=O)n(C)c(=O)n2C | 0.864% |
| CCCCCOC(=O)C1[C@H]2C(=O)N(CCCOC)C[C@]23C=C[C@H]1O3 (stereo partly drawn) | 10.7% |
| Nc1nc2n(c1C(=O)c1ccc(Br)cc1)CCCC2 | 63.6% |
| O=S1(=O)c2ccccc2C(O)C(Cc2ccccc2O)N1Cc1cccnc1 (stereo not drawn) | 8.99% |

A few entries again (series 2):
| target | remaining activity |
| --- | --- |
| cGMP-dependent protein kinase 1, isoform beta (PRKG1, Homo sapiens, UniProt Q13976) | 41.1% |
| Death-associated protein kinase 2 (DAPK2, Homo sapiens, UniProt Q9UIK4) | 72.1% |
| Cyclin-dependent kinase 4, with cyclin D1 (CDK4, Homo sapiens, UniProt P11802) | 93.9% |
| STE20/SPS1-related proline-alanine-rich protein kinase (STK39, Homo sapiens, UniProt Q9UEW8) | 103% |
| Inhibitor of nuclear factor kappa-B kinase subunit beta (IKBKB, Homo sapiens, UniProt O14920) | 89.5% |
| Calcium/calmodulin-dependent protein kinase type II subunit delta (CAMK2D, Homo sapiens, UniProt Q13557) | 97.1% |
| G protein-coupled receptor kinase 3 (GRK3, Homo sapiens, UniProt P35626) | 101% |
